Measurements of several laboratories.
Several values in a cell are separate wells, animals, samples, runs or records. ± gives the spread as reported.

SMILES	cell line	assay	conditions	how to read	quantity	result
Cc1ncsc1-c1ccc(C(C)NC(=O)C2CC(O)CN2C(=O)C(NC(=O)CCCCCCCCCCN2CCCC(Nc3ncc(Cl)c(Nc4ccccc4S(=O)(=O)C(C)C)n3)C2)C(C)(C)C)cc1 (stereo not drawn)	22Rv1	RNA-seq, refers to: MIER2 mRNA	concentration not given	reference: DMSO	log2 fold change	-1.22
O=c1cc(NCCO)c2ccccc2o1	COS-7 (untransfected)	–	500 µM, unit not given	reference: 3 µM ionomycin	calcium mobilisation signal	1.95 ± 1.03
CNS(=O)(=O)Nc1nccc(Cc2c(C)c3ccc(Oc4ncccc4F)cc3oc2=O)c1F	HEC-6	cell viability	7 days	–	IC50	0.987 µM
CN1CCCNC(=O)c2cccc(c2)C(=O)NCCCN(C)CCCNc2cccc3c2C(=O)c2cccc(c2C3=O)NCCC1	SAS	RNA-Seq, refers to: ITSN2 mRNA	1 µM, 6 h	reference: untreated cells	log2 fold change	-0.841
CCN(CC)CC(=O)Nc1cccc(-n2cc(-c3ccc4ccc(-c5cn(-c6cccc(NC(=O)CN(CC)CC)c6)nn5)cc4c3)nn2)c1	RCC4	PCR angiogenesis array, refers to: TGFB1	5 x IC50, 6 h, normoxia	reference: untreated	fold regulation	-1.39 fold
CC(=O)N[C@H](C(=O)N[C@@H](CCC(=O)O)C(=O)N[C@@H](CO)C(=O)N[C@@H](CC(=O)O)C(=O)COC(=O)c1c(C)cccc1C)[C@@H](C)O	THP-1 cells, LPS-primed	pyroptosis, LDH release	25 µM, LPS 1 µg/mL, 4 h, together with: nigericin 5 µM, 2 h	–	cell lysis	89.8%
CC12CCCC(NS(=O)(=O)c3ccc(Cl)c([N+](=O)[O-])c3)(C1)C1CC(C)(C)C1CC2 (stereo not drawn)	HT-29	cell growth or viability, CCK-8	50 µM	–	inhibition	100%
CC(C)(C)c1cc(-c2ccc3cccnc3n2)nc(-c2ccc3cccnc3n2)c1.COc1ccncc1.[Cl-].[Cl-].[Ru+2].c1ccc2cc3nc4c5cccnc5c5ncccc5c4nc3cc2c1	SK-MEL-28	–	light 633 nm, oxygen 1%	reference: dark EC50 over light EC50	phototherapeutic index	3
Cc1cc(Cl)cc(-c2ccnc3cc(CN4C(=O)C5C(C4=O)C5(C)C)sc23)c1C[C@@H]1CNCCO1 (stereo partly drawn)	CHP-212 resistant cells (pooled)	PI flow cytometry	1 µM, 24 h	–	cells in G1 phase	74.4% and 76% and 77.2%
COc1ccc(COC[C@](O)(CNCc2ccccc2)[C@@H]2CC[C@@H](C)C[C@H]2OCc2ccc(OC)cc2)cc1	A2780	cell growth or viability, MTT	10 µM, 72 h	–	inhibition	100%
CCC(=CCc1c(O)cc2c(c1O)C(=O)CC(c1ccc(O)cc1OC)O2)CC (stereo not drawn)	HeLa	cell growth or viability, MTT	25 µM, 48 h	–	inhibition	71.4%
CC(=NN=c1sc(C(=O)c2ccccc2)nn1-c1ccccc1)c1ccc(S(=O)(=O)N2CCC(C)CC2)cc1	MCF7	flow cytometry	4.29 µM (IC50), 72 h	–	cells in pre-G1 phase	14.3%
O=S(=O)(Nc1ccc(OC(F)(F)F)cc1)N1CCCC(C2c3ccc(F)cc3CCc3cc(F)ccc32)C1 (stereo not drawn)	D425	immunoblot, refers to: Bad	concentration not given, 24 h	–	phosphorylation level	decreased
CC(=O)N[C@@H](CC(=O)O)C(=O)N[C@H](C(=O)N[C@@H](CCC(=O)O)C(=O)N[C@H](C(=O)NCC(=O)N[C@@H](CCC(=O)O)C(=O)N[C@H](C(=O)O)C(C)C)[C@@H](C)O)C(C)C	HaCaT	–	concentration not given, together with: UVA	–	cells, SA-β-gal positive	decreased
CCC(=CCc1c(O)cc2c(c1O)C(=O)CC(c1ccccc1O)O2)CC (stereo not drawn)	HeLa	cell growth or viability, MTT	60 µM, 48 h	–	inhibition	74.8%
COc1ccc(CNC[C@@](O)(COCc2ccc(OC)cc2)[C@@H]2CC[C@@H](C)C[C@H]2OCc2ccc(OC)cc2)cc1	A2780	cell growth or viability, MTT	30 µM, 72 h	–	inhibition	101%
Cc1ccccc1S(=O)(=O)NC12CCCC(C)(CCC3C1CC3(C)C)C2 (stereo not drawn)	HT-29	cell growth or viability, CCK-8	50 µM	–	inhibition	87.2%
N#C[C@@H]1CCCN1C(=O)CNC(=O)c1ccnc2ccc(OCCCN3CCN(C(=O)CCc4ccc(O)c(CN5CCN6CC(=O)[O][Al-]([18F])([O]C(=O)C5)[O]c5ccc(CCC(=O)N7CCN(CCCOc8ccc9nccc(C(=O)NCC(=O)N%10CCC[C@H]%10C#N)c9c8)CC7)cc5C6)c4)CC3)cc12 (stereo partly drawn)	HT1080 cells expressing human FAP	–	90 min, 37 °C	–	internalized fraction	72.8 ± 3.2%

Excerpt of the above:
SMILES	cell line	assay	conditions	how to read	quantity	result
Cc1ccccc1S(=O)(=O)NC12CCCC(C)(CCC3C1CC3(C)C)C2 (stereo not drawn)	HT-29	cell growth or viability, CCK-8	50 µM	–	inhibition	87.2%
CN1CCCNC(=O)c2cccc(c2)C(=O)NCCCN(C)CCCNc2cccc3c2C(=O)c2cccc(c2C3=O)NCCC1	SAS	RNA-Seq, refers to: ITSN2 mRNA	1 µM, 6 h	reference: untreated cells	log2 fold change	-0.841
O=S(=O)(Nc1ccc(OC(F)(F)F)cc1)N1CCCC(C2c3ccc(F)cc3CCc3cc(F)ccc32)C1 (stereo not drawn)	D425	immunoblot, refers to: Bad	concentration not given, 24 h	–	phosphorylation level	decreased
